Published values pooled from the literature.
A part holds a random share of what one study measured. Substitutions count along the parent as printed.

Sample 1
Target: CCND2, cyclin fold, Cln2 fusion (human)
Method: yeast growth competition, sequencing
Matrix: yeast
Setting: weak parent motif
Baseline: not given
Direction: higher = stronger binding
Starting sequence: REV3L docking peptide (human); PPVIIKYIIINRF
For `R12A`, “normalised enrichment score” read -0.0899.
For `Y7A`, “normalised enrichment score” read -0.067.
`I8A`: “normalised enrichment score” 0.0617.
For `F13A`, “normalised enrichment score” read 0.408.
Under “normalised enrichment score”, `I9A` is recorded as -0.317.
For `V3A`, “normalised enrichment score” read -0.516.

Sample 2
Target: Ras GTPase-activating protein-binding protein 1, C-terminal RGG region (G3BP1, Homo sapiens, UniProt Q13283)
Sequence of UniProt Q13283 (whole entry, looked up): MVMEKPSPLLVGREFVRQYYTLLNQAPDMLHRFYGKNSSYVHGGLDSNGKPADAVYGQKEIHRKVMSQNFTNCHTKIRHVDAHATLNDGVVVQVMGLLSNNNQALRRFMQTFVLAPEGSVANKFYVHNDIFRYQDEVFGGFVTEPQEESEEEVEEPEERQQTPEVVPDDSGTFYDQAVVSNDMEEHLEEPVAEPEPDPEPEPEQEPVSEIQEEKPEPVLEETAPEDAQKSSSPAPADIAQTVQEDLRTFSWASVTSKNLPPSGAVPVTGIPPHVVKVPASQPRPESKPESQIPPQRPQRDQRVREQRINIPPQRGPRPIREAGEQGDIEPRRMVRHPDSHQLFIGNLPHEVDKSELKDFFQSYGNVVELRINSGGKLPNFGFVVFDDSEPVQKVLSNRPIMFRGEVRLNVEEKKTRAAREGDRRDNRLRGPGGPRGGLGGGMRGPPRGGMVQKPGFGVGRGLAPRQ
Method: RNA Bind-n-Seq
Molecule type: RNA
Matrix: in vitro
Tested at: 1 µM
Setting: whole 134-nt RNA, ends assumed
With: 150 mM KCl
Baseline: input library
Direction: higher = stronger binding
The log2 enrichment of `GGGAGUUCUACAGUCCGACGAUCACAAAGCAGGUGGGCAUCUUUGGGAAGUGGGGCAAGGGGGGGAUAGGGAGGGGGGUAACACUUUGGGAACAGGUGGUCCCAGGUCGUUUCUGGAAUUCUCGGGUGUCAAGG` is reported as -0.968.
`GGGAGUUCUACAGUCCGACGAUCAGUCCUGUGCUACACAUCGUAUGUACCGAAUCGGGGAAAGGGGAAAAAGGGGUGGGGAAAGUAUUAUGUUACGCCGUUCGGAUCUGCACUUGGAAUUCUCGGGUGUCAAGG` gave a log2 enrichment of 2.7.
With `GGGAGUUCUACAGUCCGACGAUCAAGUCCUGUGCUACACAUCGUAUGUACCGAAUCGGGAAAAGGAAAAGGGAAAAGGGAAAGUAUUAUGUUACGCCGUUCGGAUCUGCACUUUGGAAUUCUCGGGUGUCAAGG` the log2 enrichment was -1.67.
`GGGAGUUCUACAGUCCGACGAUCUCCUCAAGUCCUGUGCUACACAUCGUAUGUACCGAAUCGGAGGGAGGGAGGGAAAGUAUUAUGUUACGCCGUUCGGAUCUGCACUUCCAGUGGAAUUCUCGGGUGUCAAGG` gave a log2 enrichment of 1.79.
With `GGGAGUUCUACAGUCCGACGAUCGUCCUGUGCUACACAUCGUAUGUACCGAAUCGGGGAGGGGAAAAAAAGGGGAAAGGGGAAAGUAUUAUGUUACGCCGUUCGGAUCUGCACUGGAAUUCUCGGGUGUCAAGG` the log2 enrichment was 2.49.
For `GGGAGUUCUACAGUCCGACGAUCGCAGGAAGUAAAAACAAAUGGAAAUGCUUCGGAUAGUGGCAGGGGUGGGGGUUGCUAAGGAUAGGGUGGGAUGGGAGUGGGUAAAGAGUUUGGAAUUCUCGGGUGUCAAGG`, the log2 enrichment was 2.09.
With `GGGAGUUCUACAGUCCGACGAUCCCUCAAGUCCUGUGCUACACAUCGUAUGUACCGAAUCGGAGGAGGUUUUUGGAAAGUAUUAUGUUACGCCGUUCGGAUCUGCACUUCCAGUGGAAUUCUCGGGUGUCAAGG` the log2 enrichment was -0.645.
The log2 enrichment of `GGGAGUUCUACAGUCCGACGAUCGUCCUGUGCUACACAUCGUAUGUACCGAAUCGGGAAAAAGGGAAAAAAAGGGAAAGGGAAAGUAUUAUGUUACGCCGUUCGGAUCUGCACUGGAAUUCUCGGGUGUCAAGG` is reported as -0.405.
`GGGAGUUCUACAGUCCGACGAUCGUCCUGUGCUACACAUCGUAUGUACCGAAUCGGGGUUUUUGGUUUUUGGUUUUUGGGGAAAGUAUUAUGUUACGCCGUUCGGAUCUGCACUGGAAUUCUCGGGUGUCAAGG` gave a log2 enrichment of -1.29.

Sample 3
Target: HLF, bZIP domain (human)
Method: DHFR protein complementation
Matrix: yeast
Setting: single substitutions, most at no-binding floor
Baseline: wild-type JUN-FOS pair
Direction: higher = stronger binding
Starting sequence: JUN, bZIP domain (human); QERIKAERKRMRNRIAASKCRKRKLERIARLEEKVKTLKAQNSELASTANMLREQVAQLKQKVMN; partner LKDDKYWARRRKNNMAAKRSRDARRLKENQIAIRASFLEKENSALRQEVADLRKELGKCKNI
The binding fitness of `K36L` is reported as -1.39 natural log.
For `Q58R`, the binding fitness was -1.3 natural log.
`Q55W` gave a binding fitness of -1.42 natural log.
The binding fitness of `E54S` is reported as -1.35 natural log.
`L38W` gave a binding fitness of -1.49 natural log.
`M51P` gave a binding fitness of -1.49 natural log.
`S47Y` gave a binding fitness of -1.42 natural log.
For `K34D`, the binding fitness was -1.5 natural log.

Other studies, line by line
`PhoQ, residues 284 288 289 292 302 303 HSSMNL` gave a fold induction of 17.5 (PhoP, residues 12 14 15 18 19 LHHVQ (Escherichia coli, UniProt P23836); Sort-seq, item: YFP reporter; E. coli; PhoQ-PhoP variant library, with: 10 µM Mg2+; baseline: high Mg2+ state, higher = stronger signaling).
